{"data": "Measured values of several laboratories", "note": "“And” joins repeats or separate records; there may be more than shown. ± gives the spread as reported."}
{"SMILES": "C[C@]12CC[C@H]3[C@@H](CC=C4CC(O)CC[C@@]43CO)[C@@H]1CCC2O (stereo partly drawn)", "assay": "measured: CCL3", "system": "rat, GAN diet-induced MASH, plasma", "conditions": "dose not given", "how to read": "reference: GAN diet plus vehicle", "endpoint": "fold reduction", "result": "~2.2 fold"}
{"SMILES": "CCCC(C(=O)c1ccc2c(c1)OCO2)N1CCCC1.Cl (racemic)", "assay": "HPLC-ECD", "system": "rat, striatum postmortem", "conditions": "subcutaneous, 4 mg/kg", "endpoint": "dopamine level", "result": "no effect"}
{"SMILES": "CCCCNCCc1c[nH]c2cccc(O)c12.O=C(O)/C=C/C(=O)O", "system": "C57BL/6J mice", "conditions": "subcutaneous, 0.1 mg/kg, 30 min", "endpoint": "distance travelled", "result": "2390 ± 201 cm"}
{"SMILES": "CCNC(CC)C(=O)c1ccc2c(c1)OCO2 (stereo not drawn)", "assay": "locomotor activity", "system": "C57BL/6J mice, male", "conditions": "subcutaneous, total distance travelled", "endpoint": "ED50", "result": "2.11 ± 0.13 mg/kg"}
{"SMILES": "CC1(C)C(C(=O)c2cn(CCCCCF)c3ccccc23)C1(C)C", "assay": "Δ9-THC discrimination", "system": "C57BL/6J male mice", "how to read": "reference: Δ9-THC", "endpoint": "potency", "result": "1.5 fold"}
{"SMILES": "O=C(O)/C=C/C(=O)O.Oc1cccc2[nH]cc(CCNC3CCCCC3)c12", "system": "C57BL/6J mice", "conditions": "subcutaneous, 3 mg/kg", "endpoint": "head twitch count", "result": "5.5 ± 0.6"}
{"SMILES": "CN1CC[C@]23c4c5ccc(O)c4O[C@H]2[C@@H](O)C=C[C@H]3[C@H]1C5", "assay": "acetic acid-induced writhing", "system": "ICR mice", "conditions": "intraperitoneal, 10 mg/kg, 0.25 h, writhing counted over 15 min, with: 0.6% acetic acid", "endpoint": "inhibition", "result": "~98%"}
{"SMILES": "CC(C)(C)NCCc1c[nH]c2cccc(O)c12.CC(C)(C)NCCc1c[nH]c2cccc(O)c12.O=C(O)/C=C/C(=O)O", "system": "C57BL/6J mice", "conditions": "subcutaneous, 10 mg/kg, 30 min", "endpoint": "distance travelled", "result": "2940 ± 426 cm"}
{"SMILES": "NCC1(CC(=O)O)CCCCC1", "assay": "thermal hyperalgesia", "system": "rat, chronic constriction injury", "conditions": "oral, tested 10 to 300 mg/kg", "endpoint": "minimum efficacious dose", "result": "30 mg/kg"}
{"SMILES": "NCCc1ccc(Oc2ccc(O)cc2)c(I)c1", "system": "wild-type mice", "conditions": "ip, 25 mg/kg, 30 min", "how to read": "reference: saline", "endpoint": "maximum body temperature change", "result": "-2.7 ± 0.4 °C"}
{"SMILES": "CN1C(=O)CN=C(c2ccccc2)c2cc(Cl)ccc21", "assay": "food-maintained responding", "system": "Sprague-Dawley rat", "conditions": "intraperitoneal, 3 mg/kg, 30 min, acute dependence model", "how to read": "reference: control", "endpoint": "response rate", "result": "~40%"}
{"SMILES": "CCCNCCc1c[nH]c2cccc(O)c12.CCCNCCc1c[nH]c2cccc(O)c12.O=C(O)/C=C/C(=O)O", "system": "C57BL/6J mice", "conditions": "subcutaneous, 10 mg/kg, 30 min", "endpoint": "distance travelled", "result": "2280 ± 189 cm"}
{"SMILES": "COc1cc(CCNC(C)c2ccccc2O)c(OC)cc1C#N.Cl (stereo not drawn)", "system": "male C57BL/6J mice", "conditions": "subcutaneous, 30 min session", "endpoint": "ED50", "result": "1.86 mg/kg"}
{"SMILES": "CC(C)NCCc1c[nH]c2cccc(O)c12.O=C(O)/C=C/C(=O)O", "system": "C57BL/6J mice", "conditions": "subcutaneous, 10 mg/kg", "endpoint": "head twitch count", "result": "23.2 ± 1.7"}
{"SMILES": "C=CCN1CC[C@]23c4c5ccc(O)c4O[C@H]2C(=O)CC[C@@]3(O)[C@H]1C5", "assay": "antinociception, hot plate", "system": "male ICR-CD1 mice", "conditions": "subcutaneous, 5 mg/kg, 30 min", "endpoint": "maximum possible effect", "result": "-1.37% and 7.96% and 4.97% and 2.43% and 3.75% and -26.9%"}
{"note": "Excerpt of the above:"}
{"SMILES": "CCCC(C(=O)c1ccc2c(c1)OCO2)N1CCCC1.Cl (racemic)", "assay": "HPLC-ECD", "system": "rat, striatum postmortem", "conditions": "subcutaneous, 4 mg/kg", "endpoint": "dopamine level", "result": "no effect"}
{"SMILES": "NCC1(CC(=O)O)CCCCC1", "assay": "thermal hyperalgesia", "system": "rat, chronic constriction injury", "conditions": "oral, tested 10 to 300 mg/kg", "endpoint": "minimum efficacious dose", "result": "30 mg/kg"}
